Experimental data pooled from the literature.
Compare with care: the assays were run in different laboratories. ± gives the spread as reported.
GBA2: Beta-glucosidase (GBA2, Homo sapiens, UniProt Q9HCG7)
SIRT6: NAD-dependent protein deacylase sirtuin-6 (SIRT6, Homo sapiens, UniProt Q8N6T7)
SLC6A4: Sodium-dependent serotonin transporter (SLC6A4, Homo sapiens, UniProt P31645)
APP Aβ1-40: Amyloid-beta precursor protein, Aβ1-40 (APP, Homo sapiens, UniProt P05067)
SIRT3: NAD-dependent protein deacetylase sirtuin-3, mitochondrial (SIRT3, Homo sapiens, UniProt Q9NTG7)
Sigmar1: Sigma non-opioid intracellular receptor 1 (Sigmar1, Rattus norvegicus, UniProt Q9R0C9)
CTSB: Cathepsin B (CTSB, Homo sapiens, UniProt P07858)
MGLL: Monoglyceride lipase (MGLL, Homo sapiens, UniProt Q99685)

Sequences of proteins named here, by UniProt entry; tags and fusion partners are left off. Residues count along the entry.
UniProt Q9HCG7, whole entry: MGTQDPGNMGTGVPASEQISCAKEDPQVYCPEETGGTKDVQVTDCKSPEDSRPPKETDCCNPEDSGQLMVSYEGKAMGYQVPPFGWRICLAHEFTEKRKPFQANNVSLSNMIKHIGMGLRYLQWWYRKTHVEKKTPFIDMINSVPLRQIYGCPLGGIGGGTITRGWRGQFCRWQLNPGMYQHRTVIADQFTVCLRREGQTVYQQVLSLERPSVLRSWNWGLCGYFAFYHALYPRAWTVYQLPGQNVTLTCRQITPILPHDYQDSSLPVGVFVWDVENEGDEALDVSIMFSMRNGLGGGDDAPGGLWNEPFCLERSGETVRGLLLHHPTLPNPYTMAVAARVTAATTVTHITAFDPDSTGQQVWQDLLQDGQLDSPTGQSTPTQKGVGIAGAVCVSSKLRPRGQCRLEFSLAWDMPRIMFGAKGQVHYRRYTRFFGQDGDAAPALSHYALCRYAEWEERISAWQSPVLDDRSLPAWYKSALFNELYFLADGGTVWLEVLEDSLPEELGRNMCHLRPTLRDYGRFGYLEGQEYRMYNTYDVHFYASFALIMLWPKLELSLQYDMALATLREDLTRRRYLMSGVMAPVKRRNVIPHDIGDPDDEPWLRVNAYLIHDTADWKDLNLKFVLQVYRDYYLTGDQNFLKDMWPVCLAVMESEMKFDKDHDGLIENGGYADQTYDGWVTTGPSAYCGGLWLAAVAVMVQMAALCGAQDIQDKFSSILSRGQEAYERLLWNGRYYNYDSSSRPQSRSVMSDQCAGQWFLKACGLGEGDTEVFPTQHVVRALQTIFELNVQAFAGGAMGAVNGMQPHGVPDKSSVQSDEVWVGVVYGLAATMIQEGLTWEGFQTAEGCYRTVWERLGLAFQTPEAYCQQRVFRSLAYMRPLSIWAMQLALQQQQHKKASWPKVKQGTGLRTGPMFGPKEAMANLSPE
UniProt P31645, whole entry: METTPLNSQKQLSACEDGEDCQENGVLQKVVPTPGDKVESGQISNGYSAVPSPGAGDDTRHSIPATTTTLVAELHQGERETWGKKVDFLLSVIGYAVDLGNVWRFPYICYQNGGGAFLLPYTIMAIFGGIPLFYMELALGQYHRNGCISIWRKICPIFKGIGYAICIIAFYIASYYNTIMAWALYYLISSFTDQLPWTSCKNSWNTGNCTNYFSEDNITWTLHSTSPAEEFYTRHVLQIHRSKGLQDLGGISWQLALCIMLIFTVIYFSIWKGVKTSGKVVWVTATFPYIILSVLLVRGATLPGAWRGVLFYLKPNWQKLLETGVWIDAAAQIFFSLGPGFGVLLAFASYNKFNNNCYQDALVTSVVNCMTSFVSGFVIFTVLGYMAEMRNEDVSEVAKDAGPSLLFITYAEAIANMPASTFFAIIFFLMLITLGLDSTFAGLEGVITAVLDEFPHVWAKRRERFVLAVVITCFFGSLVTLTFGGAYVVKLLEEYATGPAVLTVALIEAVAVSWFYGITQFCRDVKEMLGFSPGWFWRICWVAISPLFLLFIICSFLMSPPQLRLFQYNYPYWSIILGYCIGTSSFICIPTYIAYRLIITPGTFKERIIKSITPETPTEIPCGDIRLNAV
UniProt P05067, whole entry, looked up: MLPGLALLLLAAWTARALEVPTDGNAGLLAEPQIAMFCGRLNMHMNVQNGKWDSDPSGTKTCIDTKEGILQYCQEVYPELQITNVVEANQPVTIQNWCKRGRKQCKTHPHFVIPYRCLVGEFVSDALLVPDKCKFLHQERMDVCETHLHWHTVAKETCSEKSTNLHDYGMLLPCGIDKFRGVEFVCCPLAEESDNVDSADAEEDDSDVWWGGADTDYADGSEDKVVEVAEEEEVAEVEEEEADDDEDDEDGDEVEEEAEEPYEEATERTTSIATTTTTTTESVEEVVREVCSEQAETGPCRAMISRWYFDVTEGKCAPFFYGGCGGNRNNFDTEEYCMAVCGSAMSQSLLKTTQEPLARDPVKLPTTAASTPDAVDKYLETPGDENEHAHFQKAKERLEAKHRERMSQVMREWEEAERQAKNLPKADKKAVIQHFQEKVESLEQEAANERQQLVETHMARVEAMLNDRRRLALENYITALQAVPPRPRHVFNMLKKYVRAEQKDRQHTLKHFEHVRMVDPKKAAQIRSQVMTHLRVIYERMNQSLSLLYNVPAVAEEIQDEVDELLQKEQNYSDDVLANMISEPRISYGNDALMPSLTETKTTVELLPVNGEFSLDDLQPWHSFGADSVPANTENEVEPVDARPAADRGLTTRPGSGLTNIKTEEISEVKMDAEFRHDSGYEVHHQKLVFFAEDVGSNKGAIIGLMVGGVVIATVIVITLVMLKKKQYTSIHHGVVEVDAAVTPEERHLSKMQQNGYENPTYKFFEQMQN
UniProt Q9NTG7, whole entry, looked up: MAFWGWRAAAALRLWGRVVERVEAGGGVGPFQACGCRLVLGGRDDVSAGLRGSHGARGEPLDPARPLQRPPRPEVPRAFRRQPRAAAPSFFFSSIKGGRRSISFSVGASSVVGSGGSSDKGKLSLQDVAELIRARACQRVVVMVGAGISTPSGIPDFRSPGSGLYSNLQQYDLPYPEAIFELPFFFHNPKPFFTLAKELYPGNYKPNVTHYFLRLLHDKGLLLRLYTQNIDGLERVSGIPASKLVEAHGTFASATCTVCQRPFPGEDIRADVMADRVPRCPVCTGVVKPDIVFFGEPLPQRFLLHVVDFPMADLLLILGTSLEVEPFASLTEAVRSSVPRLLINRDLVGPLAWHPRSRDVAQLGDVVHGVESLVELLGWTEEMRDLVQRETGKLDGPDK
UniProt Q9R0C9, whole entry: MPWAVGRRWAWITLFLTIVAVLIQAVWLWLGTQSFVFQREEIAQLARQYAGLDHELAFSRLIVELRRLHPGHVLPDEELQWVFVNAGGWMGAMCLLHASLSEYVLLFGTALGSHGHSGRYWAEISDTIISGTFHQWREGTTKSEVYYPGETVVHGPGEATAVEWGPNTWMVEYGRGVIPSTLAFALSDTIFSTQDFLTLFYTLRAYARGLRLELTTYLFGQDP
UniProt Q99685, whole entry: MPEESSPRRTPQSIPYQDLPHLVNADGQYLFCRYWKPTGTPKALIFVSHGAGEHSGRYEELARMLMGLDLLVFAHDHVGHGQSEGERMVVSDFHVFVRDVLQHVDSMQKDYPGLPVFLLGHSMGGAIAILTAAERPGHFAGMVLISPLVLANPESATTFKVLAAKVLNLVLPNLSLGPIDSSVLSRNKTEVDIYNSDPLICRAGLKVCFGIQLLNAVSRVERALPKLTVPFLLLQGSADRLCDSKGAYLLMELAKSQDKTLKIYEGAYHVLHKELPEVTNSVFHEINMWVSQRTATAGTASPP
UniProt Q96PU5, 594-975 limits assumed: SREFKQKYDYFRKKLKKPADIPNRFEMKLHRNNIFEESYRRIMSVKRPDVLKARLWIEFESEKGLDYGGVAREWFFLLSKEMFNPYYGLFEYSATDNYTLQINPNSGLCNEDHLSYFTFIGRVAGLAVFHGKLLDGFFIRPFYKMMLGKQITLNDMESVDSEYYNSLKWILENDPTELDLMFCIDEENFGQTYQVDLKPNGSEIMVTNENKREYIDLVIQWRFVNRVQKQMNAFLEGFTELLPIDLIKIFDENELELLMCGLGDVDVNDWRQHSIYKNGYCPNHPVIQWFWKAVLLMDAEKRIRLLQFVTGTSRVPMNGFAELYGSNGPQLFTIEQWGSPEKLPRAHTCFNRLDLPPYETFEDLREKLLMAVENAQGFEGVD
UniProt P08238, whole entry: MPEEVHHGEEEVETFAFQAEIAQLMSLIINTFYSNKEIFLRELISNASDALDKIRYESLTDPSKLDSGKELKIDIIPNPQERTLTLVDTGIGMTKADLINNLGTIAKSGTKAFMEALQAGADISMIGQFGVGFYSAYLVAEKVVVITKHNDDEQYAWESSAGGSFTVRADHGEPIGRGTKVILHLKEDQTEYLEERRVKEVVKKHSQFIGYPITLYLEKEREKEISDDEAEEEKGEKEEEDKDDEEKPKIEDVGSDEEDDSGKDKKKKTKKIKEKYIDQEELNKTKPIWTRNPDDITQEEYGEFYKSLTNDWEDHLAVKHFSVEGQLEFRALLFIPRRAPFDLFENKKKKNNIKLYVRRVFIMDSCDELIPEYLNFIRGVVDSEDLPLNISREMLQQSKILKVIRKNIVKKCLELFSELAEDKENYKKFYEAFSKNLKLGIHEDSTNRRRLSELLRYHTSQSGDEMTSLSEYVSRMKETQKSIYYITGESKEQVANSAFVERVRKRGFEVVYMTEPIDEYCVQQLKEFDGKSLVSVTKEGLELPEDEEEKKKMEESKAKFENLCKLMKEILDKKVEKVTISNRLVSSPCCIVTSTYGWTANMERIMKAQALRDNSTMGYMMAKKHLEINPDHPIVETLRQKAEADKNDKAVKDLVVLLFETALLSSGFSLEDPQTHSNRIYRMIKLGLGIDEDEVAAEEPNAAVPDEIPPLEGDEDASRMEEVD
UniProt P08246, 30-247 limits assumed: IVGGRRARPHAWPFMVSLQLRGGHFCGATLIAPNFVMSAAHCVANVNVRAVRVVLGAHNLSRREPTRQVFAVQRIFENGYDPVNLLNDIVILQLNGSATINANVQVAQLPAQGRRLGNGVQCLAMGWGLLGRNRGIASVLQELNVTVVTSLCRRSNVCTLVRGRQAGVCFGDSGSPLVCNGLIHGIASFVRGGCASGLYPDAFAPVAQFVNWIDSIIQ
UniProt P07384, whole entry: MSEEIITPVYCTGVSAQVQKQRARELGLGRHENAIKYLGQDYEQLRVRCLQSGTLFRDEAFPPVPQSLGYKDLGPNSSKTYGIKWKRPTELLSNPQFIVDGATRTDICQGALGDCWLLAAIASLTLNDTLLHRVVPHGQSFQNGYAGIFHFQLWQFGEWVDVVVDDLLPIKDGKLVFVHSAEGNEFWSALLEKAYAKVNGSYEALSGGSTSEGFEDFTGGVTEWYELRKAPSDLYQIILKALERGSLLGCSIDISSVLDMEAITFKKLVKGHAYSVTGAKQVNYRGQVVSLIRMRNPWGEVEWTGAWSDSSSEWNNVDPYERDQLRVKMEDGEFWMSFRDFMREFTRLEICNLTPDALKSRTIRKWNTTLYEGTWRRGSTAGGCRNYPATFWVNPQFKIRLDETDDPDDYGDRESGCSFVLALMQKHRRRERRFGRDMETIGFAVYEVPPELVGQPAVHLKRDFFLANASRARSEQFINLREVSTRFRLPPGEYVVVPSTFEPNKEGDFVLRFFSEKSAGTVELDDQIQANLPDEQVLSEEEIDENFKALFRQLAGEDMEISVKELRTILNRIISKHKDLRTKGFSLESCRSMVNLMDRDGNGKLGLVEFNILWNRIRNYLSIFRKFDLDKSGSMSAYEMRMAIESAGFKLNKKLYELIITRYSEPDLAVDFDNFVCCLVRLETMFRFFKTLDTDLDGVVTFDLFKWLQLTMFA
UniProt P50613, whole entry: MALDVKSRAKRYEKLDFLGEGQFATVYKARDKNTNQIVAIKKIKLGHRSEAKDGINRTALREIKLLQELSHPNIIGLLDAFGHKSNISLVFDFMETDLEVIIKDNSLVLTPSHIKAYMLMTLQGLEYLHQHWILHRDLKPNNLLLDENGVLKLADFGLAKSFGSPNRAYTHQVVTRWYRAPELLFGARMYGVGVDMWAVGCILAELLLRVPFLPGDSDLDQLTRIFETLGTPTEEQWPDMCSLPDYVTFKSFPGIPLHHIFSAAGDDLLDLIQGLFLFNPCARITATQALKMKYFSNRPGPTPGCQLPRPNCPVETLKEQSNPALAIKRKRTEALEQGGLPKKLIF
UniProt P08253, whole entry, looked up: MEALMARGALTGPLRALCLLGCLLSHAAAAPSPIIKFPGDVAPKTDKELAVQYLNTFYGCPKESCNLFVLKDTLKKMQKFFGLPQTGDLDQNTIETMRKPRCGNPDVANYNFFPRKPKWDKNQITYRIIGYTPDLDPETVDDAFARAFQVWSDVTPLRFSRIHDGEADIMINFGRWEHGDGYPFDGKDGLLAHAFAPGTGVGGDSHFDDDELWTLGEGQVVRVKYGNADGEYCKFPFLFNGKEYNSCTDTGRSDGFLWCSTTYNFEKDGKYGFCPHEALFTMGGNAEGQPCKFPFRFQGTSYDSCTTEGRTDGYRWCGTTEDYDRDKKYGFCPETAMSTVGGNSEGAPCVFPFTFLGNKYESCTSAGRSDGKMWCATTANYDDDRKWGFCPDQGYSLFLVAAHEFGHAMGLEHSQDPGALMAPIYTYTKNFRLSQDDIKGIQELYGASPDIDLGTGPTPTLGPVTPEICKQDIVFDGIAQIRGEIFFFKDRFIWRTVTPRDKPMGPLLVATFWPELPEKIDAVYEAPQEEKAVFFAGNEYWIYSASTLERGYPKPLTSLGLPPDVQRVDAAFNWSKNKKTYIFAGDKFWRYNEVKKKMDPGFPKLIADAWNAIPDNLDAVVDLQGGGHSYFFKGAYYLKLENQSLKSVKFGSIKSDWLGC
UniProt Q6PE15, 44-297 limits assumed: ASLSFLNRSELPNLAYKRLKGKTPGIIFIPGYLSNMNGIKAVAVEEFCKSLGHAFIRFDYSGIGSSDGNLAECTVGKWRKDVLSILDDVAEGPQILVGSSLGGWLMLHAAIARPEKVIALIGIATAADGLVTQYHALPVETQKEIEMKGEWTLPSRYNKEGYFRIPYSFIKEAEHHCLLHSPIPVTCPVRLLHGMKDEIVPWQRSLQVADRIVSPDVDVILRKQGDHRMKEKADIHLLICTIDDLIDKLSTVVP

| Structure (SMILES) | target | assay | test system | conditions | how to read | inhibition |
| --- | --- | --- | --- | --- | --- | --- |
| OCC1C(O)C(O)C(O)CN1CCCC(F)(F)COCc1ccc(-c2ccccc2)cc1 (centres unmarked) | GBA2 | inhibitor, FluoPol-ABPP competition | GBA2-overexpressing cell lysate | 0.1 µM | – | 3.1% |
| O=C(CCl)Nc1ccc2c(Nc3ccccc3)ncnc2c1 | EPHB3 (Homo sapiens, UniProt P54753) | kinase activity, inhibitor | – | 2 µM | baseline: DMSO | > 80% |
| NC(=O)c1ccc(C(=O)NOCc2ccccc2F)cc1 | SIRT6 | deacetylase activity, fluorogenic | – | 100 µM, with: RHKK-ac-AMC | – | 75.5 ± 3.54% |
| CCNC(=O)C(=O)[C@H](Cc1ccccc1)NC(=O)[C@H]1CCC(=O)N1Cc1ccccc1 | Cathepsin K (CTSK, Homo sapiens, UniProt P43235) | enzyme activity, inhibitor | – | 1 µM | – | 5.6% |
| CNc1nc(C#Cc2ccc(Cl)s2)nc2c1ncn2[C@H]1[C@H](O)[C@H](O)[C@]2(C#N)C[C@H]12 | SLC6A4 | binding, radioligand binding | HEK293 | 10 µM, negative means enhanced binding, with: [3H]citalopram | – | 19 ± 11% |
| CCOC(=O)/C=C/CNCCCCN1c2ccccc2CCc2ccc(Cl)cc21 | E3 ubiquitin-protein ligase NEDD4-like (NEDD4L, Homo sapiens, UniProt Q96PU5) | ubiquitination, Ub-TR-FRET | – | concentration not given, up to high concentrations | – | no inhibition |
| CS(=O)(=O)Nc1ccc(/C=C/c2c[nH]c3ccc(C#N)cc23)cc1 | APP Aβ1-40 | Aβ40 aggregation, thioflavin T fluorescence | – | 25 µM | – | 31% |
| O=C(Nc1cccc(F)c1)c1cc(S(=O)(=O)N2CCOCC2)c(Cl)cc1Cl | Autotaxin (ENPP2, Homo sapiens, UniProt Q13822) | enzyme activity | – | 10 µM, 2 h, 37 °C, with: 100 µM LPC 18:1 | – | 51.8 ± 2.4% |
| CS(=O)(=O)Nc1cccc(/C=C/c2c[nH]c3ccc(C#N)cc23)c1 | APP Aβ1-40 | Aβ40 aggregation, thioflavin T fluorescence | – | 25 µM | – | 0% |
| O=C(NNC(=S)Nc1cccc(C(F)(F)F)c1)c1cccn1-c1ccc(F)cc1 | AHSA1/HSP90AB1 (Homo sapiens, UniProt O95433+P08238) | Aha1-stimulated ATPase activity, inhibitor | – | 5 µM | – | inhibited |
| NC(=O)c1ccc(C(=O)NOCc2ccc(Sc3ccccc3F)c(C(F)(F)F)c2)cc1 | SIRT6 | deacetylase activity, fluorogenic | – | 100 µM, with: RHKK-ac-AMC | – | 100% |
| CCCCCCCCCCCCNC(=S)NCCCC[C@H](NC(=O)c1ccccc1)C(=O)N[C@H](C)C(=O)N[C@@H](CCCNC(=N)N)C(N)=O | SIRT3 | deacetylation, inhibitor | – | 10 µM, with: acetylated peptide 50 µM | – | 21% |
| Cc1cccc(C(=O)n2cc(C#N)c3ccccc32)c1 | Neutrophil elastase (ELANE, Homo sapiens, UniProt P08246) | enzyme activity, fluorogenic substrate | – | up to 50 µM | – | inactive |
| FC(F)(F)c1ccc2c(c1)CC/C2=N\OCCCN1CCCCC1 | Sigmar1 | radioligand binding | rat | 10 µM | – | 96% |
| O=C(CCc1ccccc1)N1CCC(O)(Cn2cnc3cc(Cl)ccc3c2=O)CC1 | USP7 (Homo sapiens, UniProt Q93009, Q351S) | enzyme activity | – | up to 100 µM, mutant catalytic domain, with: Ub-AMC | – | no inhibition |
| O=C(NC1CC1)C(=O)[C@H](Cc1ccccc1)NC(=O)[C@H]1CCC(=O)N1Cc1ccccc1 | CAPN1 (Homo sapiens, UniProt P07384) | enzyme activity, inhibitor | – | 1 µM | – | 86.7% |
| Oc1ccccc1C1=NCCS1 | Adenosine deaminase (ADA, Bos taurus, UniProt P56658) | enzyme activity, inhibitor, fluorescence | – | 100 µM | – | no inhibition |
| CCNC(=O)C(=O)[C@H](Cc1ccccc1)NC(=O)[C@H]1CCC(=O)N1Cc1ccc(F)cc1 | CTSB | enzyme activity, inhibitor | – | 1 µM | – | 0% |
| N#CC[C@@]12C[C@@H]1[C@@H](n1cnc3c(NCc4cccc(Cl)c4)nc(I)nc31)[C@H](O)[C@@H]2O | SLC6A4 | binding, radioligand binding | HEK293 | 10 µM, negative means enhanced binding, with: [3H]citalopram | – | 12 ± 3% |
| O=C(OC(C(F)(F)F)C(F)(F)F)N1CCc2ccc(Br)cc2C1 | MGLL | inhibitor, fluorescence | – | 1 µM, with: AHMMCE substrate | – | inactive |
| Nc1ccc([N+](=O)[O-])cc1-c1nc2ccccc2[nH]c1=O | Protein diaphanous homolog 2, FH2 domain (Diaph2, Mus musculus, UniProt O70566) | actin assembly, pyrene-actin polymerization | – | concentration not given | – | inactive |
| C/C(=N\OCCN1CCCCCC1)c1ccc(C(F)(F)F)cc1 | Sigmar1 | radioligand binding | rat | 10 µM | – | 99.7% |
| COC(=O)/C(=C/c1c[nH]c2ccc(F)cc12)c1ccc(NS(C)(=O)=O)cc1 | APP Aβ1-40 | Aβ40 aggregation, thioflavin T fluorescence | – | 25 µM | – | 0% |
| O=C(OC(C(F)(F)F)C(F)(F)F)N1CCc2c(Br)cccc2C1 | MGLL | inhibitor, fluorescence | – | 1 µM, with: AHMMCE substrate | – | inactive |

| Structure (SMILES) | target | assay | test system | conditions | how to read | inhibition |
| --- | --- | --- | --- | --- | --- | --- |
| CCCSc1nc(N[C@@H]2C[C@H]2c2ccc(F)c(F)c2)c2nnn([C@@H]3C[C@H](O)[C@@H](O)[C@H]3O)c2n1 | SLC6A3 (Homo sapiens, UniProt Q01959) | binding | – | concentration not given, human free Cmax | – | no inhibition |
| COC(=O)/C=C/CNC(=O)c1c(C)n(C2CCCC2)c2ccc(OC)cc12 | E3 ubiquitin-protein ligase NEDD4 (Homo sapiens, UniProt P46934) | ubiquitination, inhibitor, Ub-TR-FRET | – | 33 µM, HECT domain | – | 64.8 ± 22.4% |
| CCCCCCCCCCCCNC(=S)NCCCC[C@H](NS(=O)(=O)c1ccccc1)C(=O)N[C@H](C)C(=O)N[C@@H](CCCNC(=N)N)C(N)=O | SIRT3 | deacetylation, inhibitor | – | 10 µM, with: acetylated peptide 50 µM | – | 17% |
| O=C(NCc1ccc(F)cc1)C(=O)[C@H](Cc1ccccc1)NC(=O)[C@H]1CCC(=O)N1Cc1ccc(F)cc1 | CTSB | enzyme activity, inhibitor | – | 1 µM | – | 14.2% |
| O=C(OC(C(F)(F)F)C(F)(F)F)N1CCc2cc(Br)ccc2C1 | MGLL | inhibitor, fluorescence | – | 1 µM, with: AHMMCE substrate | – | inactive |
| C/C(=N\OCCNCC1CC1)c1ccc(C(F)(F)F)cc1 | Sigmar1 | radioligand binding | rat | 10 µM | – | 91.3% |
| N#Cc1ccc2[nH]cc(/C=C/c3c[nH]c4ccccc34)c2c1 | APP Aβ1-40 | Aβ40 aggregation, thioflavin T fluorescence | – | 25 µM | – | 46% |
| C/C(=N\OCCN1CCc2ccccc2CC1)c1ccc(C(F)(F)F)cc1 | Sigmar1 | radioligand binding | rat | 10 µM | – | 96% |
| COc1ccc2[nH]cc(CCc3ccncc3)c2c1 | APP Aβ1-40 | Aβ40 aggregation, thioflavin T fluorescence | – | 25 µM | – | 0% |
| CN(C)C(=O)Cn1cc(-c2ccc(-c3cncc4ccncc34)cc2)cn1 | CDK7 (Homo sapiens, UniProt P50613) | enzyme activity, SelectScreen | – | concentration not given | – | no inhibition |
| CC(C)(C1CS1)S(=O)(=O)c1ccc(Oc2ccccc2)cc1 (centres unmarked) | MMP2 (Homo sapiens, UniProt P08253) | enzyme activity, inhibitor, progress curves | – | concentration not given | – | no inhibition |
| OCC1C(O)C(O)C(O)CN1CC(F)(F)CCCOCc1ccc(-c2ccccc2)cc1 (centres unmarked) | GBA2 | inhibitor, FluoPol-ABPP competition | GBA2-overexpressing cell lysate | 0.1 µM | – | 30.4% |
| N#Cc1ccc2[nH]cc(/C=C/c3cccc(O)c3)c2c1 | APP Aβ1-40 | Aβ40 aggregation, thioflavin T fluorescence | – | 25 µM | – | 24% |
| CC[C@@]1(c2cccc(C)c2)C(=O)N(C(=O)OC)N1C(=O)OC | Palmitoyl-protein thioesterase ABHD10, mitochondrial (Mus musculus, UniProt Q6PE15) | inhibitor, competitive ABPP-MudPIT | mouse brain proteome | 2 µM | baseline: DMSO | inhibited |
| CCOC(=O)[C@@]12C[C@@H]1[C@@H](n1cnc3c(NC)nc(C#Cc4ccc(Cl)s4)nc31)[C@H](O)[C@@H]2O | SLC6A4 | binding, radioligand binding | HEK293 | 10 µM, negative means enhanced binding, with: [3H]citalopram | – | 17 ± 9% |
| Cc1n[nH]c(C)c1CCCOc1ccccc1F | PTGS1 (Homo sapiens, UniProt P23219) | enzyme activity | – | 10 µM | – | < 1% |
| CNc1nc(C#Cc2ccc(Cl)s2)nc2c1ncn2[C@H]1[C@H](O)[C@H](O)[C@]2(C(=O)OC(C)C)C[C@H]12 | SLC6A4 | binding, radioligand binding | HEK293 | 10 µM, negative means enhanced binding, with: [3H]citalopram | – | 13 ± 1% |
| C[C@@H](OCCCCCN1C[C@H](O)[C@@H](O)[C@H](O)[C@@H]1CO)c1ccc(-c2ccccc2)cc1 | GBA2 | inhibitor, FluoPol-ABPP competition | GBA2-overexpressing cell lysate | 0.1 µM | – | 0.1% |
| N#Cc1ccc2[nH]cc(/C=C/c3ccncc3)c2c1 | APP Aβ1-40 | Aβ40 aggregation, thioflavin T fluorescence | – | 25 µM | – | 18% |
| CCCCCCCCCCCCNC(=S)NCCCC[C@H](NC(=O)CCCCCCCC)C(=O)N[C@H](C)C(=O)N[C@@H](CCCNC(=N)N)C(N)=O | SIRT1 (Homo sapiens, UniProt Q96EB6) | deacetylation, inhibitor | – | 10 µM, with: acetylated peptide 50 µM | – | 55% |
| FC(F)(F)c1ccc2c(c1)CCC/C2=N\OCCCN1CCCCC1 | Sigmar1 | radioligand binding | rat | 10 µM | – | 95.1% |
| Fc1ccc2[nH]cc(/C=C/c3ccncc3)c2c1 | APP Aβ1-40 | Aβ40 aggregation, thioflavin T fluorescence | – | 25 µM | – | 24% |
| Nc1ncn([C@@H]2O[C@H](CO)[C@@H](O)[C@H]2O)c(=O)c1Cl | ADORA2A (Homo sapiens, UniProt P29274) | radioligand binding | HEK293 membranes | 10 µM | – | 35 ± 11% |

Some of these lines once more:
| Structure (SMILES) | target | assay | test system | conditions | how to read | inhibition |
| --- | --- | --- | --- | --- | --- | --- |
| O=C(OC(C(F)(F)F)C(F)(F)F)N1CCc2c(Br)cccc2C1 | MGLL | inhibitor, fluorescence | – | 1 µM, with: AHMMCE substrate | – | inactive |
| CCCSc1nc(N[C@@H]2C[C@H]2c2ccc(F)c(F)c2)c2nnn([C@@H]3C[C@H](O)[C@@H](O)[C@H]3O)c2n1 | SLC6A3 (Homo sapiens, UniProt Q01959) | binding | – | concentration not given, human free Cmax | – | no inhibition |
| COC(=O)/C=C/CNC(=O)c1c(C)n(C2CCCC2)c2ccc(OC)cc12 | E3 ubiquitin-protein ligase NEDD4 (Homo sapiens, UniProt P46934) | ubiquitination, inhibitor, Ub-TR-FRET | – | 33 µM, HECT domain | – | 64.8 ± 22.4% |
| CCCCCCCCCCCCNC(=S)NCCCC[C@H](NS(=O)(=O)c1ccccc1)C(=O)N[C@H](C)C(=O)N[C@@H](CCCNC(=N)N)C(N)=O | SIRT3 | deacetylation, inhibitor | – | 10 µM, with: acetylated peptide 50 µM | – | 17% |
| O=C(NCc1ccc(F)cc1)C(=O)[C@H](Cc1ccccc1)NC(=O)[C@H]1CCC(=O)N1Cc1ccc(F)cc1 | CTSB | enzyme activity, inhibitor | – | 1 µM | – | 14.2% |
